Measurements from different studies.
Every numbered part comes from another study and shows a few of its results, in no order.

Series 1
Target: Histone acetyltransferase KAT6A, winged helix 1, GST fusion (KAT6A, Homo sapiens, UniProt Q92794, residues 1-85)
Technique: protein binding microarray
Molecule type: double-stranded DNA, one strand shown
Sample: in vitro
Concentration: not given
Notes: 8-mer, flanks averaged, mean of 2 arrays, mostly near background
Reference: not given
Direction: higher = stronger binding
Target sequence (chain): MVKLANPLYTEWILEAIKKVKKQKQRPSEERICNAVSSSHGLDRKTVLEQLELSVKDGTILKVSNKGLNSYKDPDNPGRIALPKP
The E-score of `ACAACCAT` is reported as -0.114.
The E-score of `ACCGTCAA` is reported as 0.148.
The E-score of `CGCGGTCA` is reported as 0.354.
For `AGCCTAGG`, the E-score was -0.0703.
With `GAATAAAA` the E-score was 0.00234.
The E-score of `CACGAATG` is reported as -0.21.
With `GCCAACCC` the E-score was 0.0826.
`ACAATATG` gave an E-score of -0.0757.
For `ACCCCTCT`, the E-score was -0.138.
The E-score of `GACACGAC` is reported as -0.023.
For `ACGTCCAT`, the E-score was -0.203.
`AGCTTGGA` has an E-score of -0.3.
`ATTACTGA` has an E-score of -0.0702.
For `GGTGGGAC`, the E-score was -0.0996.
For `CAATTCAG`, the E-score was -0.2.
The E-score of `ACAGAGTC` is reported as -0.0204.
With `GTCTTCTA` the E-score was -0.161.
`ATGGGGCA` has an E-score of -0.193.
With `CACAGATC` the E-score was -0.0276.
`ACACGACA` has an E-score of -0.274.

Series 2
Target: ATP-dependent RNA helicase DDX3X, helicase core (DDX3X, Homo sapiens, UniProt O00571, residues 132-607)
UniProt O00571, sequence (132-607, looked up): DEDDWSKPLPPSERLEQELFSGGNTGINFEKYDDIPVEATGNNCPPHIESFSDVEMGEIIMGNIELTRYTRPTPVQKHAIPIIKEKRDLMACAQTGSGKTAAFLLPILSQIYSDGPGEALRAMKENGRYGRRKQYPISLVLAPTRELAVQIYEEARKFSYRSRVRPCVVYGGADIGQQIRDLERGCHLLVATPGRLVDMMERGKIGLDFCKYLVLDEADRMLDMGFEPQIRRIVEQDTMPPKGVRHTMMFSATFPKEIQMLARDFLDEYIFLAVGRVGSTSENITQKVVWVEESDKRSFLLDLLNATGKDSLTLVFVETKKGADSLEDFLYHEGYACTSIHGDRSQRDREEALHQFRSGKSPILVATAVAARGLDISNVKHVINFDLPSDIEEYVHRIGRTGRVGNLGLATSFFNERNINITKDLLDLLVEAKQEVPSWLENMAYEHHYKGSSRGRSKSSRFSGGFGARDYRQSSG
Technique: RNA Bind-n-Seq
Molecule type: RNA
Sample: in vitro
Concentration: 90 pmol
Notes: 4-mer, random 30-nt RNA, single round
Added: 3 µM DMDA-PatA, 2 mM ADP, 2 mM phosphate
Reference: input library
Direction: higher = stronger binding
`GUGG` gave a 4-mer enrichment of 1.15 fold.
The 4-mer enrichment of `UCAU` is reported as 0.909 fold.
`ACUA` has a 4-mer enrichment of 0.847 fold.
`CUCU` has a 4-mer enrichment of 0.804 fold.
`UAUG` gave a 4-mer enrichment of 1 fold.
For `CGAG`, the 4-mer enrichment was 1.2 fold.
With `CCCU` the 4-mer enrichment was 1.03 fold.
`AGGG` gave a 4-mer enrichment of 1.24 fold.
The 4-mer enrichment of `AUCG` is reported as 0.882 fold.
With `CCUC` the 4-mer enrichment was 0.994 fold.
For `GCAU`, the 4-mer enrichment was 0.969 fold.
`GCCC` has a 4-mer enrichment of 1.02 fold.
For `UAAA`, the 4-mer enrichment was 1.11 fold.
`UCCG` has a 4-mer enrichment of 0.909 fold.
With `GACG` the 4-mer enrichment was 0.923 fold.
With `UGCU` the 4-mer enrichment was 0.755 fold.
The 4-mer enrichment of `GGCU` is reported as 0.808 fold.
For `GAAU`, the 4-mer enrichment was 1.13 fold.
`UCCA` has a 4-mer enrichment of 0.993 fold.
For `UCGU`, the 4-mer enrichment was 0.915 fold.
`UUGU` has a 4-mer enrichment of 1.02 fold.
The 4-mer enrichment of `CCAG` is reported as 0.972 fold.
With `ACGG` the 4-mer enrichment was 0.935 fold.

Series 3
Target: Centromere-binding protein 1, full length, His-tagged (CBF1, Saccharomyces cerevisiae, UniProt P17106, residues 1-351)
UniProt P17106, sequence (whole entry, looked up): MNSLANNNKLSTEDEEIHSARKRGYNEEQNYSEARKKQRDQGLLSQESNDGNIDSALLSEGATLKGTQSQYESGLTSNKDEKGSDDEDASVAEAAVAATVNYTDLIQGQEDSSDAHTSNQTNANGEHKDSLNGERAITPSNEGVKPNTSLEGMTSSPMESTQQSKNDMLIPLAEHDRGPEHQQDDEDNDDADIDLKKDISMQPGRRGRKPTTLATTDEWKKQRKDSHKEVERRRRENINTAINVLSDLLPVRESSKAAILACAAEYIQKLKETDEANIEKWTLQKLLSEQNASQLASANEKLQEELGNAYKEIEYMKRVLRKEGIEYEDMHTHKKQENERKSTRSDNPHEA
Technique: competition protein-binding microarray
Molecule type: double-stranded DNA, one strand shown
Sample: in vitro
Concentration: 2 µM
Notes: whole 60-bp probe, lowest competitor level
Added: Pho4 competitor, 0.05 µM
Direction: higher = stronger binding
Shared flanks, not repeated: … GTCTTGATTCGCTTGACGCTGCTG
`CGGGGTTAAGTTTGGGAGGTGGGTGGCTTGCAGCAG` has a fluorescence intensity of 71.3 a.u.
`CTTAATTGCCGGCTCCTCGTGGTGAGATAAAATGAA` gave a fluorescence intensity of 99.1 a.u.
The fluorescence intensity of `AAAGCGGTAATTTGTACGGTGGGTGCAGATATCTAT` is reported as 79.5 a.u.
With `CTTCTGTAAATTTACCACGTGTTTTGACGCGCCCCG` the fluorescence intensity was 1320 a.u.
`CTTCTGTAAATTTGGTCGGTGGGTGGACGCGCCCCG` has a fluorescence intensity of 77.9 a.u.
With `CTGTGTGCCATTAGCCATGTGATGGGCCTATTAATG` the fluorescence intensity was 446 a.u.
With `CGGGGTTAAGTTTGTGCGGTGGGTGGCTTGCAGCAG` the fluorescence intensity was 73.5 a.u.
`AGCGGCATAAGTCGGCACGTCCCCTGAAAGTAGGCT` has a fluorescence intensity of 57.6 a.u.
`TGTATAGTAATTTGCCACGTGGGACGCTTAAGAAAT` has a fluorescence intensity of 1420 a.u.
The fluorescence intensity of `TAGTGTGTAATGTAAAGCGTGCGATTCTTGATCTGG` is reported as 82.4 a.u.
`TTGCTAGATTCGACGACCGTGTCTGTGGTAATATTT` has a fluorescence intensity of 69.5 a.u.
For `CTTCTGTAAATTTGTCGAGTGGGTGGACGCGCCCCG`, the fluorescence intensity was 63 a.u.
The fluorescence intensity of `CGTCCTAGTGATTGGTCGGTGGGTGCCATGAGGAAG` is reported as 79 a.u.
With `TGGAAGGAAAAACAGCACGCTTGTAAGGGGGATGGG` the fluorescence intensity was 95.9 a.u.
The fluorescence intensity of `TGAAGAGTGTTGTTTCATGTGACAGTGAATGCCATT` is reported as 417 a.u.
With `AAAGCGGTAATTTGTCACAAAACTTCACATATCTAT` the fluorescence intensity was 96.2 a.u.
The fluorescence intensity of `CGTCCTAGTGATTTTCACGTGACGTCCATGAGGAAG` is reported as 4440 a.u.
For `GTCTTGTCTCATTGATCAGTGGGTGTCCCCACTTCA`, the fluorescence intensity was 78.3 a.u.
With `TGCGCAACAACTTGAACGGTGGGTGTATGTCTAGAA` the fluorescence intensity was 66.7 a.u.
With `CTTGGGCCCTATCGGCACGCTAAAGATGCTTGTGGA` the fluorescence intensity was 71.3 a.u.
With `GTCTTGTCTCATTGATAAGTGGGTGTCCCCACTTCA` the fluorescence intensity was 63.6 a.u.
`ACAATAGGGTTTCGTCACGTAATAAGCAACGTACAG` gave a fluorescence intensity of 104 a.u.

Series 4
Target: RING finger protein unkempt homolog, zinc fingers 1-6, GST-SBP tag (UNK, Homo sapiens, UniProt Q9C0B0, residues 30-357)
Technique: RNA Bind-n-Seq
Molecule type: RNA
Sample: in vitro
Concentration: not given
Notes: RNA with constant flanks, human-mouse chimeric sites, ends assumed
Reference: input RNA pool
Direction: higher = stronger binding
Shared flanks, not repeated: GGGAGUUCUACAGUCCGACGAUC … CAACAGAGGAUUGAGCAUCA
Residues (chain): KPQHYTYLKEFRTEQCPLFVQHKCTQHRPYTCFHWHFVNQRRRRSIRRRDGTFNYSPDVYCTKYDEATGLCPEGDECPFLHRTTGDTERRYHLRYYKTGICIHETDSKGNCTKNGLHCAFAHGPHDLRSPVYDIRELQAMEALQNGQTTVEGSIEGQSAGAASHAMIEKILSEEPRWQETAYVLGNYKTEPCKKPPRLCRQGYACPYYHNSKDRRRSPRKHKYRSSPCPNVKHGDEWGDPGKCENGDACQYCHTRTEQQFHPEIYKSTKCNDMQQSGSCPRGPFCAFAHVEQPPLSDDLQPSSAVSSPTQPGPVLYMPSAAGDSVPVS
The bound/input enrichment of `AGAGAUAAGACAUCCAGAAAUAUGAGAGGCUCCCGGAUGAAUGGGUUGCCUAGCCCCACUCACAGCGCCCACUGUAGCUUCUACAGAACCAGAACCUUGCAGGCACUGAGUAAUGAGAAG` is reported as 0.254 ratio.
The bound/input enrichment of `GUAGCUGGCCAUUAGGAAAUGCUGGUAAUUUCAGUCACUUGCUGAUGACUUCUGAUGUCCCAGCAAAUGUUGGCAUUGUUGACUGCUCUGUGAAGACUUCUGAGGACCCACGUCUAAGGU` is reported as 0.314 ratio.
With `GUUGCCAGCUUCCGGUUCCGUUGGGCUCGGUUCUCUCCUGAGCUACGUGUCUCUACGCUCUCAAUCCCGGUUGGGUAAAACAUGGAUCAGGUAAUGCAGUUUGUGGAUGAGCCAAGUCAG` the bound/input enrichment was 0.0706 ratio.
The bound/input enrichment of `UUAAUCCCCUUUACUGCUCCCCCACUUCUCAUGGUAAUGACAAAAACUUAUAUCCCCAUAUUAGCUUUCACUCAGAUGGCUUAUGGAGCCGGUUUCCUAGCUUUCUUGGGAGGGAUCAGA` is reported as 0.323 ratio.
With `CACAGAGCAGCACCUACCCCCUCCUCCUUUCCACACCUGCAAACUCUUUUACUUGGGCUGAAUAUUUAGUGUAAUUAACAUCGCAGCUUGAGGGCUCCUGUGGCAAAAUACCCGGAUAAA` the bound/input enrichment was 1.44 ratio.
With `UUAAUCCCCUUCGUUGCUCCCCCACUUGUCAUGCUGAUAACAAAGUCUUAUAUCCCCGUCCUAGCUUUCACUCAGAUGGCUUAUGGAGCCGGUUUCCUAGCUUUCUUGGGAGGGAUCAGA` the bound/input enrichment was 0.293 ratio.
For `CCAAUCGUGGAGCAGUACUUGAAGACAAAGAAAAAUUCUAAUAAUUUAAUCAUCAAGUACAUUAGCUGCCGCCUGCUGACACUCAUCAUUAUACUGUUGGCAUGUAUCUACCUGGGCUAU`, the bound/input enrichment was 0.271 ratio.
For `AAAUCGUGUGUGUCCAAUAUUGAAAGUACUUUAUCUGCACUCCAGUAUGUAAGCAGUAUAGUAGUUUCUUUAGAGAAUAGGUCAGCCAUUGUAAAGUAUAAUGCAAGCUUAGUCACUCCA`, the bound/input enrichment was 2.52 ratio.
For `UGGCGCCUGCGCUCCCCGUUUUUAAAUUUAAGUGUAUAAGAUGUAUAUACAUGUAUUUACAAUUGAGCUUUUGUUACAUAAUGCUGAAAUGCUACUGGAGAUUAUGAAAAAUGUUUCAAU`, the bound/input enrichment was 0.246 ratio.
`GCAAAGGAUGAUGAGGCAGCUGCAGUUGCCCUUUCCUCCCUGAUUCAUGCUUUGGAUGAGUUAAACAUGGUCGCCAUCGUCCGAUAUGCUUAUGACAAAAGAUCUAAUCCUCAAGUUGGU` has a bound/input enrichment of 0.0983 ratio.
`GUUGCCAGCUUCCGGUUCCGUUGGGCUCGGUUCUCUCCUGAGCUACGUGUCUCUACGCUCUCAAUCCCGGUUGGGUAAAACAUGGAUCAGGUAAUGCAGUUUGUGGAGCCCAGCCGGCAG` gave a bound/input enrichment of 0.0741 ratio.

Excerpt of the above (series 3):
With `CGGGGTTAAGTTTGTGCGGTGGGTGGCTTGCAGCAG` the fluorescence intensity was 73.5 a.u.
`AGCGGCATAAGTCGGCACGTCCCCTGAAAGTAGGCT` has a fluorescence intensity of 57.6 a.u.
`TGTATAGTAATTTGCCACGTGGGACGCTTAAGAAAT` has a fluorescence intensity of 1420 a.u.
The fluorescence intensity of `TAGTGTGTAATGTAAAGCGTGCGATTCTTGATCTGG` is reported as 82.4 a.u.
`TTGCTAGATTCGACGACCGTGTCTGTGGTAATATTT` has a fluorescence intensity of 69.5 a.u.
For `CTTCTGTAAATTTGTCGAGTGGGTGGACGCGCCCCG`, the fluorescence intensity was 63 a.u.
The fluorescence intensity of `CGTCCTAGTGATTGGTCGGTGGGTGCCATGAGGAAG` is reported as 79 a.u.
